Assay results collected from several papers.
Lines come from different studies, so protocols differ. Values joined by “and” are separate records of one study, mostly repeats; a detail may differ. ± gives the spread as reported.

CN([O-])C(=O)CN1CCN(CC(=O)N(C)[O-])CCN(Cc2ccccn2)CC1.[89Zr+4] has a tracer uptake of 0.77 %ID/g (mouse, lung; intravenous, 4 h).
Cn1ccc(-c2cc(Cl)c(Cl)c3[nH]c4c(c23)CN(C(=O)CO)CC4)n1 has a blood clearance of 26.5 mL/min/kg (C57BL/6 mice, whole blood; intravenous, 0.5 mg/kg).
With [11CH3]N1CCC(NC(=O)c2cc(-c3c(O)cc(O)cc3Oc3ccc([N+](=O)[O-])cc3)on2)CC1 the tissue uptake was 17.6 ± 1.5 %ID (Wistar rat, female, healthy, blood; intravenous, 2 min).
For C[C@H](C(=O)O)c1ccc(-c2ccccc2)c(F)c1, “peak area change” read at most 2% (HPLC; sample solution; concentration not given, 12 h, room temperature, solution stability).
CCCCN1C(=O)c2cccc3c(NCCCCN4CCOCC4)ccc(c23)C1=O: “fluorescence quantum yield” 0.29 (methanol).
Cc1c(Cc2cc(Cl)cc(OC(C)C(=O)O)c2)c2ccc(C(=O)NC(C)c3ccc(C(C)(C)C)cc3)cc2n1CC1CC1 (stereo not drawn) has a half-life of over 1 h (human liver microsomes; 1 µM, added: microsomes 1 mg/mL).
For Cc1cc(-c2ccc(C(=O)[C@@H]3CCCC[C@H]3C(=O)Nc3cnn4c3C(=O)NCC4)cc2)[nH]n1, “cumulative recovery of radioactivity” read 2.08% (human, urine; oral, 200 mg, 0-6 h; reference: dose).
CCCCCCCOc1ccc(CC[C@](N)(CO)COP(=O)(O)O)cc1C(F)(F)F has a Cmax of 9.22 ng/mL (healthy human males, plasma; 0.75 mg, day 21).
Under “Cmax at first steady-state dose”, CN1CCC[C@]1(C)/C=C/S(=O)(=O)NC(=O)Nc1c2c(cc3c1C(O)CC3)CCC2 (stereo partly drawn) is recorded as 3200 ng/mL (human, plasma; oral, 12.5 mg twice daily of parent drug, day 14, metabolite of dosed drug).
N=C(N)NCCC[C@@H]1NC(=O)[C@H](CO)NC(=O)[C@@H](NC(=O)[C@H](CO)NC(=O)[C@H](CO)NC(=O)[C@H](Cc2c[nH]c3ccccc23)NC(=O)CNC(=O)[C@H](CO)NC(=O)[C@@H](N)Cc2c[nH]c3ccccc23)CSSC[C@@H](C(=O)NCC(=O)O)NC(=O)[C@H](CO)NC1=O has a Cmax of 2480 ng/mL (patients, plasma; intravenous, 5 mg/kg, thrice weekly, mean).
For COc1ccc(C(N)=O)cn1, “concentration at time” read 46 µM (Han Wistar rats, male, plasma; oral, 30 mg/kg, 2.00 h).
CC(=O)N([O-])CCCCCNC(=O)CCC(=O)N([O-])CCCCCNC(=O)CCC(=O)N([O-])CCCCCN.[89Zr+4] gave a tracer uptake of 0.04 %ID/g (mouse, lung; 24 h).
For CCCCN1C(=O)c2cccc3c(NCCCCCCCCCCN4CCOCC4)ccc(c23)C1=O, the fluorescence lifetime was 4.2 ns (water; pH 6.0).
For C=C[C@]1(C)C[C@@H](OC(=O)CSc2ccc(NC(=O)c3ccco3)cc2)[C@]2(C)[C@H](C)CC[C@]3(CCC(=O)[C@H]32)[C@@H](C)[C@@H]1O, the plasma concentration was 99.6 ng/mL and 121 ng/mL and 105 ng/mL and 122 ng/mL and 104 ng/mL and 249 ng/mL and 242 ng/mL and 163 ng/mL (Mycoplasma gallisepticum-infected chickens, plasma; intramuscular, 80 mg/kg, 8 h).
CC(C)(O)c1ncc([S@](N)(=O)=NC(=O)Nc2c3c(cc4c2CCC4)CCC3)s1 — result for “subjects with adverse events”: 8% (item: Psychiatric disorders; healthy human volunteers; oral, dose not given, 14 days, multiple dose, all active arms).
Under “Cmax at second steady-state dose”, CN1CCC[C@]1(C)/C=C/S(=O)(=O)NC(=O)Nc1c2c(cc3c1CCC3O)CCC2 (stereo partly drawn) is recorded as 34000 ng/mL (human, plasma; oral, 50 mg twice daily of parent drug, day 14, metabolite of dosed drug).
For CN1CCCNC(=O)c2cccc(c2)C(=O)NCCCN(C)CCCNc2cccc3c2C(=O)c2cccc(c2C3=O)NCCC1, the body weight was 29 g and 25 g (mouse xenograft model; dose not given, day 0).
C=CC(=O)Nc1cc(Nc2nccc(-c3c[nH]c4ccccc34)n2)c(OC)cc1N(C)CCN(C)C gave a recovery of 96.2% (storage stability; human plasma; 2 h, on ice, HQC level).
For Oc1cccc(-c2cccc(O)n2)n1.[Cl-].[Cl-].[Ru+2].c1ccc(-c2ccnc3c2ccc2c(-c4ccccc4)ccnc23)cc1.c1ccc(-c2ccnc3c2ccc2c(-c4ccccc4)ccnc23)cc1, “singlet oxygen quantum yield” read 0.05 (acetonitrile; acidic form).
With C=CC(=O)Nc1cc(Nc2nccc(-c3cn(C)c4ccccc34)n2)c(OC)cc1N(C)CCNC the recovery was 58.1% (storage stability; human dried blood spot; 30 d, on ice, MQC level).
CC(C)(C)n1ncc2c(=O)n(Cc3cccc(F)c3)c(NCc3ccc(F)cn3)nc21 has a brain concentration of 26.7 ± 18.3 ng/g (C57BL/6J mice, male, brain; oral, 10 mg/kg, 1 h).
The microsomal CLint of [2H]C([2H])(N)C([2H])([2H])NC(=O)c1cc(C2CC2)nc2c1cnn2C(C)C is reported as under 9.6 µL/min/mg (metabolic stability; mouse, liver microsomes).
[123I]c1ccc2nc(-c3ccc(-n4ccnn4)nc3)cn2c1 has a tracer uptake of 1.02 %ID/g (male Wistar rat, stomach; intravenous, 4 MBq, 6 h).
The SUV of O=C(Nc1cnccc1-c1ccc([18F])nc1)c1ccnc(NC(=O)C2CC2)c1 is reported as 0.025 (FVB/NJ mice (both sexes), thalamus; intravenous, dose not given, 120 min).
For CN(C)S(=O)(=O)c1ccc(S(=O)(=O)N2CCC(n3c(=O)[nH]c4ccccc43)CC2)cc1, the body weight was 103% (mouse; intraperitoneal, 6 mg/kg, 7 day; reference: day 0).
COCC1CN(C2CCN(c3cc(OC)c(Nc4ncc(Br)c(Nc5ccc6c(c5P(C)(C)=O)OCCO6)n4)cc3C)CC2)C1 has an adverse events of 0% (first-in-human trial; human; oral, 90 mg once daily; treatment-related leading to permanent discontinuation).
The AUC(0-t) of C=C(NC(=O)c1csc(-c2nc3c(cc2O)-c2nc(cs2)C(=O)NC(C(C)O)C(=O)NC(=C(C)OC)c2nc(cs2)C(=O)NC2c4nc(cs4)C(=O)NC(COC(=O)c4c5c6c(cccc6n4O)COC(=O)C(OC4CC(C)(O)C(N(C)C)C(C)O4)C2OC5)c2nc-3cs2)n1)C(N)=O (stereo not drawn) is reported as 1810 ng·h/mL (ICR mice, Streptococcus pneumoniae ATCC 49169 infected, immunocompromised, blood; intravenous, 16 mg/kg/day once daily).
For CN(O)C(=O)CCC(=O)NCCCN(CCCCN(CCCNC(=O)CCC(=O)N(C)O)C(=O)CCC(=O)N(C)O)C(=O)CCC(=O)N(C)O.[89Zr], the tracer uptake was 0.01 %ID/g (mouse, fat; 24 h).
O=C([O-])CN1CCN(CC(=O)[O-])CCN(C(CO)C(O)CO)CCN(CC(=O)[O-])CC1.[Dy+3] (stereo not drawn) — result for “cumulative urinary excretion”: 98.9% (ICP-MS; cynomolgus monkey; dose not given, 5 d, mass balance group; reference: dose).
CN[C@H](CC(C)C)C(=O)N[C@H]1C(=O)N[C@@H](CC(N)=O)C(=O)N[C@H]2C(=O)N[C@H]3C(=O)N[C@H](C(=O)N[C@H](C(=O)N[C@H](CCCNC(=N)N)C(N)=O)c4cc(O)cc(O)c4-c4cc3ccc4O)[C@H](O)c3ccc(c(Cl)c3)Oc3cc2cc(c3O[C@@H]2O[C@H](CO)[C@@H](O)[C@H](O)[C@H]2O[C@H]2C[C@](C)(N)[C@H](O)[C@H](C)O2)Oc2ccc(cc2Cl)[C@H]1O gave an AUC of 17200 ng·h/mL (female CD-1 mouse, plasma; intravenous, 10 mg/kg, single dose).
CSCC[C@H](N)C(=O)N[C@@H](CO)C(=O)N[C@H](C(=O)N[C@@H](C)C(=O)NCC(=O)N[C@@H](CC(C)C)C(=O)N[C@@H](CCCCN)C(=O)N[C@@H](CCCCN)C(=O)N[C@@H](CCC(N)=O)C(=O)N[C@@H](Cc1c[nH]c2ccccc12)C(=O)N[C@@H](Cc1ccc(O)cc1)C(=O)N[C@@H](CCCCN)C(=O)N[C@@H](C)C(=O)N[C@@H](CO)C(=O)N[C@@H](CCC(N)=O)C(=O)N[C@@H](CC(C)C)C(=O)N[C@H](C(=O)N[C@@H](CO)C(=O)N[C@@H](CCC(=O)O)C(=O)N[C@@H](CCCCN)C(=O)N[C@H](C(=O)NCC(=O)NCC(=O)N[C@@H](C)C(N)=O)C(C)C)C(C)C)C(C)C — result for “ΔG of binding”: -6.4 kcal/mol (circular dichroism titration; 25% DOPS/75% DOPC liposomes; 50 µM, pH 7.4, 20 °C).
For N=C(N)NCCC[C@@H]1NC(=O)[C@@H](NC(=O)CCCCCNC(=O)c2ccc3c(c2)C(=O)OC32c3ccc(O)cc3Oc3cc(O)ccc32)CSSC[C@@H](C(N)=O)NC(=O)[C@H](CC(=O)O)NC(=O)[C@@H]2CCCN2C(=O)CNC(=O)[C@H](CCCCN)NC(=O)[C@H](CC(=O)O)NC(=O)CNC1=O, “tissue penetration depth” read over 30 mm (ex vivo tumour dipping, immunofluorescence; human peritoneal metastasis explants; 10 µM, 90 min, 37 °C).
With O=C(Nc1cnccc1-c1ccc([18F])cc1)c1ccnc(NC(=O)C2CC2)c1 the mean SUV was 0.33 (ex vivo gamma counting; FVB/NJ mice, both sexes, adipose tissue; intravenous, 120 min, added: tariquidar 15 mg/kg iv).
CNc1cc(C)c(C(N)=O)cn1 — result for “concentration at time”: 45 µM (Han Wistar rats, male, plasma; oral, 30 mg/kg, 3.00 h).
The depletion of O=C(Nc1cccc(CO)c1)c1cc(-c2ccccc2)n(-c2ccccc2)n1 is reported as under 30% (rat liver microsomes; 4 h).
For CCC1CNC(CC)CN(C(C(=O)[O-])c2ccc(C(=O)[O-])cc2)C(CC)CN(CC(=O)[O-])C(CC)CN1.[Mn+2] (stereo not drawn), the Mn content was 0.43 ± 0.13 µg/g (ICP-MS; BALB/c mouse, spleen; intravenous, 0.05 mmol/kg, 1440 min, without anaesthesia).
For CO.Cc1ccc2c(Cl)cc(Cl)c([O-])c2n1.Cc1ccc2c(Cl)cc(Cl)c([O-])c2n1.[Co+2].c1ccc2nc3c4cccnc4c4ncccc4c3nc2c1, the body weight was 18.8 ± 1.3 g (nude mouse, HeLa xenograft; 2.0 mg/kg, start of treatment).
O=C(O)CN1CCN(CC(=O)O)CCN(CC(O)CN(CC(O)CN2CCN(CC(=O)O)CCN(CC(=O)O)CCN(CC(=O)O)CC2)C[C@H](O)[C@@H](O)[C@H](O)[C@H](O)CO)CCN(CC(=O)O)CC1 (stereo partly drawn) has a log K of 2.99 (pH-potentiometry, item: Gd2(HL), glucamine N protonation; 25 °C, 0.15 M NaCl).
With COc1cccc(OC)c1-c1cc(C(=O)NC2(C(=O)O)C3CC4CC(C3)CC2C4)nn1-c1ccc(C(=O)NCCNC(=O)[C@H](CCCCNC(=O)[C@H](CC(C)C)NC(=O)C2OC2C(=O)O)NC(=O)CN2CCN(CC(=O)[O-])CCN(CC(=O)[O-])CCN(CC(=O)[O-])CC2)cc1C(C)C.[177Lu+3] (mixture of isomers) the tissue uptake was 2.1 %ID/g (mouse, HT-29 xenograft, lung; 4 h post injection).
CC(C)C[C@@H]1NC(=O)[C@H](CCCCN)NC(=O)CNC(=O)[C@H]2CCCN2C(=O)[C@H](CCCCN)NC(=O)[C@H](CC(C)C)NC(=O)[C@H](CCCCN)NC(=O)C2CCC=CCCC(NC(=O)[C@H](CCCCN)NC1=O)C(=O)N[C@@H](CCCCN)C(=O)NC(C(N)=O)CCC=CCCC(N)C(=O)N[C@@H](CCCCN)C(=O)N2 (stereo partly drawn) gave a retention time of 14.8 min (RP-HPLC C18; hydrophobicity).
For CNC(NN=Cc1ccc([N+](=O)[O-])o1)=[S+][Au-][Cl], the solution stability was at least 1 week (1H NMR; DMSO-d6; time compound intact).
With O=C(NS(=O)(=O)c1cccs1)c1cc2ccccc2n1Cc1ccc(Br)c2ccccc12 the body weight was 40.8 g and 38 g and 41.4 g and 40.2 g and 40 g and 39.2 g (KM mouse, chronic hyperuricaemia model; dose not given, day 30).

Repeated from above:
With O=C(Nc1cnccc1-c1ccc([18F])cc1)c1ccnc(NC(=O)C2CC2)c1 the mean SUV was 0.33 (ex vivo gamma counting; FVB/NJ mice, both sexes, adipose tissue; intravenous, 120 min, added: tariquidar 15 mg/kg iv).
[123I]c1ccc2nc(-c3ccc(-n4ccnn4)nc3)cn2c1 has a tracer uptake of 1.02 %ID/g (male Wistar rat, stomach; intravenous, 4 MBq, 6 h).
The SUV of O=C(Nc1cnccc1-c1ccc([18F])nc1)c1ccnc(NC(=O)C2CC2)c1 is reported as 0.025 (FVB/NJ mice (both sexes), thalamus; intravenous, dose not given, 120 min).
With O=C(NS(=O)(=O)c1cccs1)c1cc2ccccc2n1Cc1ccc(Br)c2ccccc12 the body weight was 40.8 g and 38 g and 41.4 g and 40.2 g and 40 g and 39.2 g (KM mouse, chronic hyperuricaemia model; dose not given, day 30).
For CN1CCCNC(=O)c2cccc(c2)C(=O)NCCCN(C)CCCNc2cccc3c2C(=O)c2cccc(c2C3=O)NCCC1, the body weight was 29 g and 25 g (mouse xenograft model; dose not given, day 0).
